# Assay results from different studies.
# Protocols differ between the studies behind these lines. “And” joins repeats or separate records; there may be more than shown. ± gives the spread as reported.
SMILES,method,species,matrix,route,dose,time,plasma concentration
COc1cc(F)c([C@@H]2CNC(=O)[C@H]2NC(=O)Nc2ccccc2)c(F)c1,,"C57BL/6 mice, LPS challenge",plasma,oral,3 mg/kg,1.5 h post dose,112 ± 50 nM
CC[C@H](C)[C@H](NC(=O)[C@H](CCC(=O)O)NC(=O)[C@H](CO)NC(=O)[C@@H](NC(=O)[C@@H](N)CO)C(C)C)C(=O)N[C@@H](CCC(N)=O)C(=O)N[C@@H](CC(C)C)C(=O)N[C@@H](CCSC)C(=O)N[C@@H](Cc1cnc[nH]1)C(=O)N[C@@H](CC(N)=O)C(=O)N[C@@H](CC(C)C)C(=O)NCC(=O)N[C@@H](CCCCN)C(=O)N[C@@H](Cc1cnc[nH]1)C(=O)N[C@@H](CC(C)C)C(=O)N[C@@H](CC(N)=O)C(=O)N[C@@H](CO)C(=O)N[C@@H](CCSC)C(=O)N[C@@H](CCC(=O)O)C(=O)N[C@@H](CCCNC(=N)N)C(=O)N[C@H](C(=O)N[C@@H](CCC(=O)O)C(=O)N[C@@H](Cc1c[nH]c2ccccc12)C(=O)N[C@@H](CC(C)C)C(=O)N[C@@H](CCCNC(=N)N)C(=O)N[C@@H](CCCCN)C(=O)N[C@@H](CCCCN)C(=O)N[C@@H](CC(C)C)C(=O)N[C@@H](CCC(N)=O)C(=O)N[C@@H](CC(=O)O)C(=O)N[C@H](C(=O)N[C@@H](Cc1cnc[nH]1)C(=O)N[C@@H](CC(N)=O)C(=O)N[C@@H](Cc1ccccc1)C(N)=O)C(C)C)C(C)C,ELISA,female CD-1 mice,blood plasma,subcutaneous,10 nmol/kg,2 h,0.038 nM
O=Cc1cc2c(cc1F)C(=O)N(C1CCC(=O)NC1=O)C2 (stereo not drawn),,CD-1 mice,,intravenous,1 mg/kg,0.25 h,not detected
Cc1cc([C@@H](C)Nc2ccccc2C(=O)O)c2nc(N3CCC(F)(F)CC3)c(C#N)c(=O)n2c1,,"NOD SCID mice, HCC1954 xenograft",,oral,300 mg/kg once daily,8 h,279 ng/mL
O=[N+]([O-])c1ccc(-c2ccc(O)cc2)c2cccnc12,,ICR mice male,plasma,intravenous,1 mg/kg,1 h,1.67 ng/mL
COc1nc(-c2cc(C)c(N[C@@H](C)c3cc(F)cc(F)c3)nn2)ccc1-n1cnc(C)c1,,"C57BL/6J mice, male",plasma,oral,50 mg/kg daily for 9 days,4 h after last dose,23000 ng/mL
Cc1cc2sc(N)nc2c2cccnc12,LC-MS,"BALB/c mice, female",,intraperitoneal,30 mg/kg,2 h,1110 ± 130 ng/mL
COc1nc(-c2cc(C)c(N[C@@H](C)c3c(F)cc(F)cc3F)nn2)ccc1-n1cnc(C)c1,,"C57BL/6J mice, male",plasma,oral,25 mg/kg daily for 9 days,4 h after last dose,5480 ng/mL
O=S(=O)(c1ccc(-c2ccc3nccc(Nc4ccncn4)c3c2)cc1)N1CCOCC1,,female BALB/c mice,plasma,intraperitoneal,10 mg/kg,4 h,2200 ng/mL and 1840 ng/mL and 27.6 ng/mL

# A few entries again:
SMILES,method,species,matrix,route,dose,time,plasma concentration
COc1nc(-c2cc(C)c(N[C@@H](C)c3cc(F)cc(F)c3)nn2)ccc1-n1cnc(C)c1,,"C57BL/6J mice, male",plasma,oral,50 mg/kg daily for 9 days,4 h after last dose,23000 ng/mL
